Measured values gathered from unrelated publications.
Numbered parts are unrelated; each lists some results of a single study. Substitutions count along the parent as printed.

Series 1 — technique: RNA Bind-n-Seq; molecule type: RNA; sample: in vitro; concentration: not given; reference: input RNA pool; reading: higher = stronger binding; endpoint: bound/input enrichment
Target: RING finger protein unkempt homolog, zinc fingers 1-6, GST-SBP tag (UNK, Homo sapiens, UniProt Q9C0B0, residues 30-357)
Sequence of UniProt Q9C0B0 (30-357, looked up): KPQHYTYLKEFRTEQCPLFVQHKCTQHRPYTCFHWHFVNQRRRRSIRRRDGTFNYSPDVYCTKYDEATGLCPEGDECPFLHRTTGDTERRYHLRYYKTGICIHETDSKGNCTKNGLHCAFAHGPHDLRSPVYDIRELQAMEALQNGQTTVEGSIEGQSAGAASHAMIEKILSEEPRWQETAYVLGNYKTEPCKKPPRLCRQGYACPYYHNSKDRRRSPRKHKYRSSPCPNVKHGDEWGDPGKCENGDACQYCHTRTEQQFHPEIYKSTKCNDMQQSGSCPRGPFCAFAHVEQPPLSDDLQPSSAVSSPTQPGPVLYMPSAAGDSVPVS
Setting: RNA with constant flanks, human-mouse chimeric sites, ends assumed
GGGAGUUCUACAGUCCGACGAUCUUGAAAACAAACUGAUUUAAGUUUGAGUAUCACAAUGUUAGCUUUCUAAUUCCAUAAAAGUACUUGGUUUUUACAGUAACCCCACAUACAUCACCCCAGCGCCAUUUGUAAAGAGCAACUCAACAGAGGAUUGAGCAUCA: 0.902 ratio
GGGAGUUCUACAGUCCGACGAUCCACAGAGCAGCACCUACCCCCUCCUCCUUUCCACACCUGCAAACUCUUUUACUUGGGCUGAAUAUUUAGUGUAAUUACAUCUCAGCUUUGAGGGCUCCCUGUGGCAAUUCCCGGAUUAAACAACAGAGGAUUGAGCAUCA: 1.4 ratio
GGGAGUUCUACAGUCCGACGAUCGACUUUGGGACUGGUCCUCGCAACGCAGCCUUCUAUAGCCCUCAUGGACAUAUAUUAGUGCUGGCUGGAUUUGGAAAUCUUCGAGGACAAAUGGAAGUGUGGGAUGUUAAAAACUACAAGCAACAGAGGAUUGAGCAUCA: 0.313 ratio
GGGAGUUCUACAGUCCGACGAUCCGCUGGCCCAAGCUGAUGUAAAUGUUUGGCCUCCAUCAAGGUAUUAUGUGUGCCUUCUCUUAGUCCCUGUUUUCGGGAUGUUAUGAAUCUCAGUACUGUGGUUUGAAAGCACCAGCUUUGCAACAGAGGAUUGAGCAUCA: 0.113 ratio
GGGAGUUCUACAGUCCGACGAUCUUCUAGUAUGAUGGUGAUAUUGGAAAUUAUUAUUAUGGCCAGGGUCAUCCCAUGAAGCCUCAUAGAAUCCGGAUGACUCAUAACUUGCUGCUAAAUUAUGGUUUAUACCGAAAAAUGGAACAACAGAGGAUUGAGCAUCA: 0.239 ratio
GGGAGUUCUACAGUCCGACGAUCUAACCACAUCAAGAUGGUUGGAAAGCUGAAGCAGAACUUACUCUUGGCAUGUCUGGUGAUUAGUUCUGUGACCGUGUUUUACCUGGGCCAGCAUGCCAUGGAGUGCCAUCACCGAAUAGACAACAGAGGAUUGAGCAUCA: 0.251 ratio
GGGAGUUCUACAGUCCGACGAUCGAUCAUGAACCACCAUCAGAAAUGAAGAUGAGAUUACCCAGACGAGCCAAAACAGCUGCGCUACAGAAAAAGUAAACUAACCUUGCAGAGUUCCUUAAUGAAGAUACUAAGUUAGGAAGCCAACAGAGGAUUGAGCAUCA: 0.453 ratio
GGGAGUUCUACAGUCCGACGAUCACCUCCCCCUCCCGCCUCACCCCACCCCCGCUUUUUGGAAAGUUUUUGGCGUUUCUUUUCCUUCCCCAUACAAAGUGAUUACAGUUUCCCCCGCAAGUGGGGCUUGAAGGGCUUGACGGACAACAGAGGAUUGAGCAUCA: 1.32 ratio

Series 2 — target: CCNE2, cyclin fold, Cln2 fusion (human); technique: yeast growth competition, sequencing; sample: yeast; setting: strong parent motif; reference: not given; reading: higher = stronger binding; endpoint: normalised enrichment score
Starting sequence: RBL2 docking peptide (human); STTRRRLFVENDS; partner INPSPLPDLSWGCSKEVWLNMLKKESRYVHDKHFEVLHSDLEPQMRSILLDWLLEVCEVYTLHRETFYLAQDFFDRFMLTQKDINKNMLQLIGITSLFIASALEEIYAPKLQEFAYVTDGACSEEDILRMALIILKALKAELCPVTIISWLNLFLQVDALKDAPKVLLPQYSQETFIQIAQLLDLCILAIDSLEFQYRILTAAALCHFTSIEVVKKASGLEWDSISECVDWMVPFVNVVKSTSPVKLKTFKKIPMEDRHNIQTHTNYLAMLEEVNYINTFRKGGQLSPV
STTRRRLWVENDS [F8W]: 0.92
STTNRRLFVENDS [R4N]: 1.04
STTRRRLFVENRS [D12R]: 2.97
STTRRRLFVENAS [D12A]: 2.58
STTRRTLFVENDS [R6T]: 0.396
STTRRRLQVENDS [F8Q]: 0.309
MTTRRRLFVENDS [S1M]: 4.02
STTRRRLFWENDS [V9W]: 3.63
STTRRRLFVEIDS [N11I]: 3.04
STTRRQLFVENDS [R6Q]: 3.71
SYTRRRLFVENDS [T2Y]: 3.9
STTRRRLFVENMS [D12M]: 2.97
STTCRRLFVENDS [R4C]: 3.97
STTRERLFVENDS [R5E]: -0.078
STTGRRLFVENDS [R4G]: -0.373
STTRRHLFVENDS [R6H]: 0.331

Series 3 — technique: aptamer microarray, sandwich; molecule type: DNA with 2'F-ANA; sample: in vitro; concentration: 200 nM; together with: Cy3 exosite-II aptamer, 400 nM; reading: higher = stronger binding; endpoint: mean fluorescence intensity; sequence: GGTTGGTGTGGTTGG
Target: Prothrombin, mature alpha-thrombin (F2, Homo sapiens, UniProt P00734)
Setting: whole 15-mer aptamer, many near background
2'F-ANA at 1 4 6 8 9 10 12 13: 51.9 a.u.
2'F-ANA at 1 3 4 7 9 10 11 12 13: 103 a.u.
2'F-ANA at 2 3 5 6 10: 59.9 a.u.
2'F-ANA at 4 5 6 7 8 11 12 13 14: 52.8 a.u.
2'F-ANA at 1 2 3 5 8 12 13: 102 a.u.
2'F-ANA at 3 4 6 7 11 14 15: 275 a.u.
2'F-ANA at 1 2 5 6 7 8 9 10 11 12 14: 51.2 a.u.
2'F-ANA at 1 2 5 6 7 8 9 12 14 15: 57.7 a.u.
2'F-ANA at 2 3 6 7 15: 754 a.u.
2'F-ANA at 2 3 4 5 6 7 8 9 12 13: 118 a.u.
2'F-ANA at 1 2 4 6 7 8 11 12 13 14: 81.1 a.u.
2'F-ANA at 3 5 6 7 9 12 14 15: 56.9 a.u.
2'F-ANA at 1 4 5 6 8 9 11 12 13 14 15: 83.9 a.u.
2'F-ANA at 1 4 6 7 8 10 13 14: 119 a.u.
2'F-ANA at 5 6 9 11 14: 47.9 a.u.
2'F-ANA at 2 5 6 7 13: 109 a.u.
2'F-ANA at 1 2 3 4 6 8 11 14: 61.5 a.u.

Series 4 — technique: RNA Bind-n-Seq; molecule type: RNA; sample: in vitro; concentration: 365 nM; reference: no-protein control; reading: higher = stronger binding; endpoint: RBNS enrichment (R)
Target: RNA binding protein fox-1 homolog 2, RRM domain, GST-SBP tag (RBFOX2, Homo sapiens, UniProt O43251-10, residues 100-194)
Setting: natural RNA segment, single round, ends assumed
Residues (chain): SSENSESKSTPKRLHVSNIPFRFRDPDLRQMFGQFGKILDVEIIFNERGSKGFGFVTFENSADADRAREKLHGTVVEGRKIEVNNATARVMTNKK
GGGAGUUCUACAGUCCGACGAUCUGUAUAUUAAAAUAGCAUACUGUGUAUGUUUUAUAUCAAAUGCCUUCAUGAAUCUUUCAUACAUAUAUAUAUUUGUAACAUUGUAAAGUAUGUGAGUAGUCUUAUGUAAAUGGAAUUCUCGGGUGCCAA: 0.661
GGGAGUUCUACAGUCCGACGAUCGGUAGACAUUUCCUAAAGUUGAAGCAGUAGCUUCAUAGAGUCUUGGUUACUUUAUUUUUUUUAAUGCUUUACAUUUGAUACAACUAUUGAAGAUCAAUUUAAAAAUAACUUGGAAUUCUCGGGUGCCAA: 0.682
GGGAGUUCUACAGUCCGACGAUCGGGUGUUUCUGUGGGUACUCCUCUUACCCCAGCAAAUAAAAGGAAUUGUCUGACCCUAGAGGCAGAUGCUGCACUGCACUACUCCAAUGUCUUCCAUGGAGCCUCAGGUGUGGAAUUCUCGGGUGCCAA: 0.539
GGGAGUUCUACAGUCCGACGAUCGAUGGAAAACAUGCAUAGACACAAACCCCCUGCCUUAUGUGGAAAUCAUAGCCCCCUGCCGCUCAGCCUUGUACAUAGACCUAUCCCUCCCUGCCCUGGUCCUCUUCCUGUGGAAUUCUCGGGUGCCAA: 0.836
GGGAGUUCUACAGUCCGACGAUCUUGUGGUUUCUGUUUCUUGAGAAAAAUUUUUUGUUAUUUUUACAUCUAACAGAGGAAAAAAAAUUUAAAAAGAGGGUAAGAAAUGACUCCAGUGGGGUGAUUUUAACAUGUGGAAUUCUCGGGUGCCAA: 0.762
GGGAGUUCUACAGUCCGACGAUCAUAUCCAUAGAUAUAGUACUUUGUCUUGUCAGGAGGUGGAAACCGAAAUAAAUUAUCUUUUAAAAAGAAGUCAGAUUAACUUCUUUUCAUGUAUCCGUGAGGACUUCACGUGGAAUUCUCGGGUGCCAA: 0.483
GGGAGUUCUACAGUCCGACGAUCACAUCUCUUCCUUUUCCAGAUCCCAUGCUUUGAAAAAUAUUUAUAGACAGUUCCAGGUCUCAGCUUCCUGUCCUCUAGUUCUGCUGUUCGGGCAUAAAAUCUUUAUCUCCUGGAAUUCUCGGGUGCCAA: 0.579
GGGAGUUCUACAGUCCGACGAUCUAUUCCCUGGUAUCAGUGUAAUGGAAAGUAGCAGCAGAGAGGAAGUUAAUGGCAGGCAGGCCCAUCUGGCUAUCCCGCAGUUGGGGAAACCCUUGCAAAGUAAACAGCUUUGGAAUUCUCGGGUGCCAA: 0.289
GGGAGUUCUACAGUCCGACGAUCUUAUUUUUAAAAAGGAAGGAAGGAGCAAGUGAAGUUUCAUUCUGCUCCAGCGGUGGGGAAGCCGCUGAAUCCACCUGCUUCUCCUUUGCAACCGACAGCAAACAGCUUUCUGGAAUUCUCGGGUGCCAA: 0.324
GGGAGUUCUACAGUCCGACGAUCUGGAGUUUACCAUGUUACCCUGUAAUUAAAAACAAAGAAUAGGUAACAUAUUGUGCCAGUGUUGCAACGUUUUAAACUGCUAACAGACCUUAAAAUAUCCCCCUACCUGGUGGAAUUCUCGGGUGCCAA: 0.228
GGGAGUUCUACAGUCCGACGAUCGUCUUCUGGCUACUAAGUGAUAAAAAGAACAUUAACAACCUUUAAUUACCUUCCUAGUGGGAACUUUUUCUACUUUACCUACAAGUUCUAUAUAUGUAGAAAUGAAUAAAUGGAAUUCUCGGGUGCCAA: 0.418
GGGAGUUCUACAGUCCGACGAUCCUUCUCACACAGCAAGUCCGAGCUGUGAACUGUAGUUCGUGAGAGAAAUCAGCCUGAGGCUGUCUUCACAGGCAGACAUCUAUCCUGCUUCCUCUUCCGGGGCUUCUGGGUGGAAUUCUCGGGUGCCAA: 0.212

Series 5 — technique: DHFR PCA, deep sequencing; sample: yeast; together with: (+)-ABA 58 µM; reference: wild-type fitted maximum; reading: higher = stronger binding; endpoint: relative binding score
Target: ABI1, truncated, D143A, DHFR fusion (Arabidopsis thaliana)
Setting: methotrexate growth selection, single substitutions
Starting sequence: PYL1, truncated, DHFR fusion (Arabidopsis thaliana); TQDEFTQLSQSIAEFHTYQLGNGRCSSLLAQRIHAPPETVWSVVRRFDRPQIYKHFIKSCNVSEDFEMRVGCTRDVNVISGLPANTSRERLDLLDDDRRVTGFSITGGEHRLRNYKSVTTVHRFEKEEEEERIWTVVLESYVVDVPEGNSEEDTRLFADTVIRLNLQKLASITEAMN; partner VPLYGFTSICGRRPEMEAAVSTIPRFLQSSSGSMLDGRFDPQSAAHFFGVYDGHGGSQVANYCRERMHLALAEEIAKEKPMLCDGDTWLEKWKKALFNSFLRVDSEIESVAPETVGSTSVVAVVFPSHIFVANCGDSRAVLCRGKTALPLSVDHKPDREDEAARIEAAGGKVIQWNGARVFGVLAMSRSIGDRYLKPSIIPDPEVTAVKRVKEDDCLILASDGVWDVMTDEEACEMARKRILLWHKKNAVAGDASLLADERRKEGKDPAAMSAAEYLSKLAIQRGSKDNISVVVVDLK
E14G: 47.1%
R69M: 84.2%
I162R: 3.34%
F66S: 78.8%
R98K: 92.1%
I12T: 48.2%
E152K: 78.7%
V145P: 36.7%
W41L: 0.499%

Series 6 — technique: protein binding microarray; molecule type: double-stranded DNA, one strand shown; sample: in vitro; concentration: not given; reference: not given; reading: higher = stronger binding; endpoint: E-score
Target: Histone acetyltransferase KAT6A, winged helix 2, GST fusion (KAT6A, Homo sapiens, UniProt Q92794, residues 85-181)
Setting: 8-mer, flanks averaged, mean of 2 arrays, mostly near background
Residues (chain): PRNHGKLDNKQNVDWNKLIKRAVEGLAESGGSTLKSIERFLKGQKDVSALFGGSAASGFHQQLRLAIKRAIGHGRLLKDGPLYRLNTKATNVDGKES
ATTGTACC: -0.00645
TAGTTGAA: 0.0885
ATCTGCGC: 0.0476
CGCCGGCA: 0.241
CAACGCGA: -0.0554
GGTAACGA: -0.139
GGTTCCGA: 0.0884
ACAGAGTA: 0.113
CTCTATGA: 0.071
CACGCGAG: 0.0548
ATGTACCA: -0.0733
CTTTTGCC: 0.0732
CTCAGTGA: -0.022
ACTGGACT: -0.053
ATCGAAAT: -0.0773
CCCTTTCG: -0.0165
CGACTCGA: -0.013
CAACGGAC: 0.145

Some of these lines once more (series 3):
2'F-ANA at 2 3 5 6 10: 59.9 a.u.
2'F-ANA at 4 5 6 7 8 11 12 13 14: 52.8 a.u.
2'F-ANA at 1 2 3 5 8 12 13: 102 a.u.
2'F-ANA at 3 4 6 7 11 14 15: 275 a.u.
2'F-ANA at 1 2 5 6 7 8 9 10 11 12 14: 51.2 a.u.
2'F-ANA at 1 2 5 6 7 8 9 12 14 15: 57.7 a.u.
